Values quoted from earlier work, collected from citations in different studies.

`COc1ccccc1Oc1c(NS(=O)(=O)c2ccc(C(C)(C)C)cc2)nc(-c2ncccn2)nc1OCCO` has a Cmax of 2.57 µM (human; 125 mg, 10 days).
`O=C(O)[C@H](c1ccccc1)[C@H]1CCCCN1` gave a Cmax of 69.5 ng/mL (human, CES1 wild type, plasma; oral, 10 mg methylphenidate, single dose, median).
`Cc1nnc2n1-c1ccc(Cl)cc1C(c1ccccc1)=NC2` has a Cmax ratio of 1.04 (human; together with: ritonavir; baseline: with over without ritonavir).
`COC(=O)C(c1ccccc1)C1CCCCN1` (centres unmarked) has a Cmax of 0.062 µM (human, plasma; concentration not given, median of reported values).
For `C=C[C@@H]1C[C@]1(NC(=O)[C@@H]1C[C@@H]2CN1C(=O)[C@H](C(C)(C)C)NC(=O)O[C@@H]1C[C@H]1CCCCCc1nc3ccc(OC)cc3nc1O2)C(=O)NS(=O)(=O)C1CC1`, the Cmax was 0.1 µM (healthy human subjects, plasma; 100 mg, steady state).
`CC1(C)CCC(CN2CCN(c3ccc(C(=O)NS(=O)(=O)c4ccc(NCC5CCOCC5)c([N+](=O)[O-])c4)c(Oc4cnc5[nH]ccc5c4)c3)CC2)=C(c2ccc(Cl)cc2)C1`: “Cmax at steady state” 2240 ng/mL (human; 400 mg once daily).
`O=C(O)CSc1nnc(Br)n1-c1ccc(C2CC2)c2ccccc12` gave a Cmax of 30 µM (human, plasma total; 400 mg).
`C=C1C[C@@H]2[C@H](CC[C@]3(C)C(=O)CC[C@@H]23)[C@@]2(C)C=CC(=O)C=C12` gave a Cmax of 0.003 to 59100 µM (human, plasma; concentration not given, range of reported values).
`CC[C@H]1OC(=O)[C@H](C)[C@@H](O[C@H]2C[C@@](C)(OC)[C@@H](O)[C@H](C)O2)[C@H](C)[C@@H](O[C@@H]2O[C@H](C)C[C@H](N(C)C)[C@H]2O)[C@](C)(OC)C[C@@H](C)C(=O)[C@H](C)[C@@H](O)[C@]1(C)O` has a Cmax ratio of 1.54 (human; together with: ritonavir; baseline: with over without ritonavir).
For `CC(C)(C)c1ccc(C(O)CCCN2CCC(C(O)(c3ccccc3)c3ccccc3)CC2)cc1` (centres unmarked), the Cmax was 0.003 µM (human, plasma; concentration not given, median of reported values).
`Cc1ncc2n1-c1ccc(Cl)cc1C(c1ccccc1F)=NC2` gave a Cmax ratio of 4.09 (human; together with: ketoconazole; baseline: with over without ketoconazole).
